Published values of several laboratories.
Protocols differ between the studies behind these lines. ± marks the error that the study gave.

With CNS(=O)(=O)Nc1nccc(Cc2c(C)c3ccc(Oc4ncccc4F)cc3oc2=O)c1F the IC50 was > 1 µM (AU565; cell viability; 7 days).
For CCC(=CCc1c(O)cc2c(c1O)C(=O)CC(c1ccc(O)c(OC)c1)O2)CC (centres unmarked), the IC50 was 16.8 ± 3.6 µM (normal pig cell line; cytotoxicity, MTT; 48 h).
CCNC(NN=Cc1ccc([N+](=O)[O-])o1)=[S+][Au-][Cl] gave an IC50 of 21.4 µM (CAKI-1; cell growth or viability, resazurin).
CCC(=CCc1c(O)cc2c(c1O)C(=O)CC(c1ccc(OC)c(O)c1)O2)CC (centres unmarked) has an IC50 of 99.8 ± 2.7 µM (normal pig cell line; cytotoxicity, MTT; 48 h).
Cc1cnc2nc1Nc1cccc(c1)COC/C=C/COCc1cc(ccc1OCCN1CCOCC1)N2 has an IC50 of 9.65 µM (SET-2; cell growth or viability, CCK-8).
For C=CC(=O)N1CC2C(=O)N(CCN(C)C)c3c(c4cc(Cl)c(-c5c(O)cccc5F)nc4n(-c4c(C)ccnc4C(C)C)c3=O)N2CC1C (centres unmarked), the IC50 was > 10 µM (SW1573; cell growth or viability).
With CCn1nc(Cl)c2c1-c1cnc(N)c(c1)O[C@H](C)c1cc(F)ccc1-c1nn(C)cc1C2 the IC50 was 0.00696 µM (Aska-SS (ALK exon 2-17 deletion); cell viability).
The IC50 of Oc1ccc(C#Cc2c(O)ccc3c2C(c2ccc(O)cc2)(c2ccc(O)cc2)c2cc(O)ccc2-3)cc1 is reported as 16.1 µM (MGC-803; cell growth or viability, MTT; 48 h).
With Cc1cc2cc(C(=O)N(Cc3ccc(C(F)(F)F)cn3)[C@H](C)c3ncccn3)ccc2nc1N the IC50 was 0.0002 µM (HCT-116 MTAP-deleted; global SDMA level, refers to: SDMA; 72 h).
COc1cccc(N2C(=O)C3=Nc4ccccc4CN3C2=S)c1 has an IC50 of 42.8 ± 6.1 µM (healthy human PBMCs; cell viability, resazurin).
For Cc1cc(NC(=O)Nc2cc(C(F)(F)F)ccc2F)ccc1C(=O)Nc1ccc2[nH]ncc2c1, the IC50 was > 50 µM (KM12; cell growth or viability, ATP luminescence; 72 h).
CN1CCC(N[C@H]2CCc3[nH]c4c(C(N)=O)ccc(-c5ccccc5Cl)c4c3C2)CC1 has an IC50 of 1.24 µM (NCI-H446; cell proliferation; 96 h).
For C[C@H](c1ccccc1)N1C(=O)C2=Nc3cccc(Cl)c3CN2C1=S, the IC50 was 2.8 ± 0.6 µM (healthy human PBMCs; cell viability, resazurin).
With CCOc1cncc(-c2ccc(NC(=O)C3(c4ccnc(NS(=O)(=O)C5CC5)n4)CCOCC3)nc2)n1 the IC50 was 8.38 µM (human Hepatic cancer; cell proliferation, inhibitor, CellTiter-Glo viability; 72 h, 0.1% DMSO).
For CC(C)c1ccc(N(C)c2ccc3c(c2)OCC[C@H]3CNc2cnccc2C(=O)O)cc1, the IC50 was 0.028 µM (PLC-PRF-5; cell growth or viability, ATP luminescence; 7 days).
COc1ccc(NC(=O)c2ccc3[nH]c(-c4ccc(N(C)C)cc4)nc3c2)cn1 has an IC50 of 9.24 µM (Y79; cell growth, CellTiter-Glo).
With O=C(Nc1ccc(C(=O)Nc2ccc3[nH]ncc3c2)c(Br)c1)Nc1cc(C(F)(F)F)ccc1F the IC50 was > 50 µM (KM12; cell growth or viability, ATP luminescence; 72 h).

For quick reference, copied from above:
The IC50 of Oc1ccc(C#Cc2c(O)ccc3c2C(c2ccc(O)cc2)(c2ccc(O)cc2)c2cc(O)ccc2-3)cc1 is reported as 16.1 µM (MGC-803; cell growth or viability, MTT; 48 h).
